{"data": "Results pooled from the literature", "target": "Rho-associated protein kinase 1 (ROCK1, Homo sapiens, UniProt Q13464)", "note": "Compare with care: the assays were run in different laboratories. Several values in a cell are separate wells, animals, samples, runs or records."}
{"Compound": "NC(=O)C[C@H]1CCc2sc3ncnc(O[C@H]4CC[C@H](N5CCOCC5)CC4)c3c21", "assay": "enzyme activity, inhibitor", "setting": "10 µM", "quantity": "inhibition", "value": "2%"}
{"Compound": "Nc1ncc(-c2cc(-c3cnn(CC(F)(F)F)c3)ncc2F)nc1C(=O)NC1CNCC(F)C1 (stereo not shown)", "assay": "enzyme activity", "setting": "1 µM", "scale": "baseline: DMSO control", "quantity": "remaining activity", "value": "102%"}
{"Compound": "C[C@H]1CN(C(=O)c2cn(-c3ccnc(N)n3)c3cc(C#CC4(O)CCCCC4)ccc23)CCN1", "assay": "enzyme activity, inhibitor, FRET", "setting": "1 µM", "quantity": "inhibition", "value": "3%"}
{"Compound": "COc1cc(Nc2nccc(-c3cnn4nc(OC)ccc34)n2)cc(C(F)(F)F)c1", "assay": "binding, competition with immobilised ligand", "setting": "1 µM", "quantity": "remaining binding", "value": "100%"}
{"Compound": "C=CC(=O)N1Cc2nc(-c3cc(-c4cc(Cl)cnc4Cl)c(F)cc3F)n(-c3ccncn3)c2C1", "assay": "cell-free assay, inhibitor", "setting": "1 µM", "quantity": "inhibition", "value": "6.9%"}
{"Compound": "C=CC(=O)Nc1cccc(-c2cnc3[nH]cc(C(=O)NC(C)(C)C)c3n2)c1", "assay": "kinase activity", "setting": "0.1 µM", "quantity": "inhibition", "value": "32% and 30%"}
{"Compound": "COc1ccc(C(=O)/C=C/c2ccccc2-c2c[nH]c3ccc(C#N)cc23)c(O)c1", "assay": "enzyme activity, inhibitor", "setting": "20 µM", "quantity": "inhibition", "value": "10%"}
{"Compound": "COc1c(Cl)cccc1Nc1c(-c2ccncc2C#C[C@@]2(C)CCCN2C(=O)/C=C/CN(C)C)[nH]c2c1C(=O)NCC2", "assay": "binding, competition with immobilised ligand", "setting": "3 µM", "quantity": "remaining binding", "value": "98%"}
{"Compound": "Cc1cccc(O[C@H]2CCC[C@@H](C(C)CNCc3ccncc3)C2)c1 (relative stereo)", "assay": "enzyme activity, inhibitor", "setting": "1 µM", "quantity": "inhibition", "value": "1%"}
{"Compound": "CNC(=O)C[C@H](Cc1ccc(C#N)cc1)NC(=O)c1cc(-c2ccc(CN[C@H](C)c3ccc(C)cc3)o2)ccc1Cl", "assay": "enzyme activity, inhibitor", "setting": "1 µM", "quantity": "activity vs control", "value": "107%"}
{"Compound": "CC(C)=CC1OC(C)(C)C2C=C3C(=O)C(Cl)=CC(O)C3C3C(O)C4OC4C(=O)C132 (stereo not shown)", "assay": "cell-free assay, competition with immobilised ligand", "setting": "10 µM", "quantity": "remaining binding", "value": "96%"}
{"Compound": "C=CC(=O)N1CCCC(n2c(=O)c3ncccc3n(Cc3ccc(Oc4ccccc4)cc3)c2=O)C1 (stereo not shown)", "assay": "cell-free assay, competition with immobilised ligand", "setting": "1 µM", "quantity": "remaining binding", "value": "81%"}
{"Compound": "CS(=O)(=O)Nc1cccc(-c2csc3cnc(Nc4ccc(N5CCN(CCCCCOc6cccc7c6C(=O)N(C6CCC(=O)NC6=O)C7=O)CC5)cc4)nc23)c1 (stereo not shown)", "assay": "kinase probe labelling, binder, KiNativ ATP-acylphosphate LC-MS", "test system": "MOLT-4 live cells", "setting": "1 µM", "quantity": "inhibition", "value": "-19.1%"}
{"Compound": "COc1cc(-n2cc3cc(F)cc(C(N)=O)c3n2)cc(Cl)c1C1CC(O)(CCO)Cc2ccccc21 (stereo not shown)", "assay": "enzyme activity, inhibitor", "setting": "10 µM", "quantity": "inhibition", "value": "0.17%"}
{"Compound": "C=CC(=O)N1CCc2ccc(-n3c(=O)ccc4cnc5ccc(-c6cnn(C)c6)cc5c43)cc21", "assay": "KINOMEscan", "setting": "1 µM", "scale": "baseline: DMSO control", "quantity": "remaining binding", "value": "94%"}
{"Compound": "O=C=[N][Ru-4]123([n]4c5ccc(O)cc5c5c6c(c7cc(F)c[n+]1c7c54)C(=O)NC6=O)[S+]1CC[S+]2CC[S+]3CC1 (stereo not shown)", "assay": "enzyme activity", "setting": "100 nM, human enzyme, together with: 10 µM ATP", "scale": "baseline: untreated", "quantity": "remaining activity", "value": "113%"}
{"Compound": "Cc1nc2c(F)cc(-c3nc(Nc4ccc(CNC(=O)CCCCCCC(=O)NO)cc4)ncc3F)cc2n1C(C)C", "assay": "enzyme activity, inhibitor", "setting": "1 µM", "quantity": "inhibition", "value": "73%"}
{"Compound": "CNC(=O)C1CCN(c2cc(C)c(F)cc2NC(=O)c2ccc(-c3cc(O)ccc3C)c(C)c2)CC1", "assay": "binding, competition with immobilised ligand", "setting": "1 µM", "quantity": "remaining binding", "value": "100%"}
{"Compound": "CN1CC[C@@H](COc2cnc(C#N)cc2-c2ccn3nc(NC(=O)C4CC4)cc3c2)C1", "assay": "enzyme activity, inhibitor", "setting": "1 µM", "quantity": "inhibition", "value": "-8%"}
{"note": "Repeated from above:"}
{"Compound": "CN1CC[C@@H](COc2cnc(C#N)cc2-c2ccn3nc(NC(=O)C4CC4)cc3c2)C1", "assay": "enzyme activity, inhibitor", "setting": "1 µM", "quantity": "inhibition", "value": "-8%"}
